Assay results gathered from unrelated publications.
A part holds a random share of what one study measured.

Study 1
Target: Sal-like protein 4, full length isoform B (SALL4, Homo sapiens, UniProt Q9UJQ4-2, residues 1-616)
Method: universal PBM
Molecule type: double-stranded DNA, one strand shown
Sample: in vitro
Concentration: not given
Setting: 8-mer, flanks averaged, mean of replicates
Reading: higher = stronger binding
Target sequence (chain): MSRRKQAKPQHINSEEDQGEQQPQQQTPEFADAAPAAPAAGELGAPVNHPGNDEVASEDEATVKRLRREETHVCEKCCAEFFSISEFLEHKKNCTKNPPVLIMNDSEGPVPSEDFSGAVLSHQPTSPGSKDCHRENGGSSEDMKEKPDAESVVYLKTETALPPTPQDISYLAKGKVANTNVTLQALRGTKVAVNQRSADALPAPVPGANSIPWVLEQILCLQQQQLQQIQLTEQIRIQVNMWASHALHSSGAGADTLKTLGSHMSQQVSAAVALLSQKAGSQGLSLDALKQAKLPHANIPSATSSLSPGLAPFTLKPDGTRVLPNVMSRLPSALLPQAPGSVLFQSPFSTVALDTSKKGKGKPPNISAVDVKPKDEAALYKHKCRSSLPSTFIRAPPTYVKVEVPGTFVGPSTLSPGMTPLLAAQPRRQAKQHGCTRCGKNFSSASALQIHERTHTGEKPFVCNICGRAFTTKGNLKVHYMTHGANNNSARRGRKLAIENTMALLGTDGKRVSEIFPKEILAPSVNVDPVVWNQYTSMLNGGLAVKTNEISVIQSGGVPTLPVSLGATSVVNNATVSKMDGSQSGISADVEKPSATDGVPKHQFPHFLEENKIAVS
For `AAAGTCCC`, the E-score was 0.0242.
With `CCATACAG` the E-score was -0.0523.
`ACGAGATG` gave an E-score of -0.102.
The E-score of `CGGCACCC` is reported as -0.209.
The E-score of `CGCTCCAC` is reported as -0.222.
The E-score of `TAGATGGA` is reported as 0.0554.
`GGTCGAAC` has an E-score of -0.183.
For `ACTGCTCA`, the E-score was 0.00478.
`GCATGGGA` gave an E-score of -0.15.
With `TCTCTAAA` the E-score was 0.0971.
`GCGCCTAA` gave an E-score of -0.0846.
With `CAAGGAAC` the E-score was -0.0575.
`GACTCACC` has an E-score of -0.102.
The E-score of `CAGCCCGG` is reported as -0.313.
`GGGGCGTA` gave an E-score of -0.181.
The E-score of `AGTGAGCG` is reported as -0.109.
`AGTTGTCA` has an E-score of 0.0246.
`CCTTAGTC` gave an E-score of -0.0992.
For `CAGCGGAC`, the E-score was -0.268.
The E-score of `GGCCGCCC` is reported as -0.406.
For `TGAGCTAA`, the E-score was 0.0685.
With `ACTGAACG` the E-score was 0.0185.
`ATTTGGTA` has an E-score of 0.215.
`CAGATTCC` has an E-score of -0.274.
With `CTATGTCA` the E-score was 0.217.

Study 2
Target: Histone acetyltransferase KAT6A, winged helix 2, GST fusion (KAT6A, Homo sapiens, UniProt Q92794, residues 85-181)
Method: protein binding microarray
Molecule type: double-stranded DNA, one strand shown
Sample: in vitro
Concentration: not given
Setting: 8-mer, flanks averaged, mean of 2 arrays, mostly near background
Relative to: not given
Reading: higher = stronger binding
Residues (chain): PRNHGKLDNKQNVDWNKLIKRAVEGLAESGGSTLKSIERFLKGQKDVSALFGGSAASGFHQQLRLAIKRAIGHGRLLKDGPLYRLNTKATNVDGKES
The E-score of `AAGAGTCC` is reported as -0.0769.
With `CGAATCAC` the E-score was 0.0471.
The E-score of `AACGACGC` is reported as -0.129.
With `ACAGGCAC` the E-score was -0.121.
The E-score of `AAAAGGTA` is reported as -0.122.
The E-score of `ATATGATA` is reported as 0.167.
`AGGTGGCC` gave an E-score of -0.028.
With `AGATAGGG` the E-score was -0.155.
The E-score of `ATGATTTG` is reported as -0.101.
For `ATTACGTA`, the E-score was -0.174.
`AGGGGGCA` has an E-score of 0.136.
For `CGCGTAAC`, the E-score was -0.0996.
The E-score of `AGAAAGCA` is reported as 0.121.
`AGTTAGGC` has an E-score of 0.0285.
The E-score of `CGACGGCA` is reported as 0.0515.
For `ATGGACAG`, the E-score was -0.0885.
With `CTATGACC` the E-score was -0.0912.
`CGATACGC` has an E-score of -0.0704.
`AGCTCGAA` has an E-score of 0.0227.
With `GCGTCGCC` the E-score was 0.238.
The E-score of `ACGGATCT` is reported as 0.0117.
`GGATCTTA` gave an E-score of 0.0638.
With `AGTAATTA` the E-score was -0.051.
The E-score of `CGGGCCCC` is reported as 0.214.

Study 3
Target: RNA binding protein fox-1 homolog 2, RRM domain, GST-SBP tag (RBFOX2, Homo sapiens, UniProt O43251-10, residues 100-194)
Method: RNA Bind-n-Seq
Molecule type: RNA
Sample: in vitro
Concentration: 365 nM
Setting: natural RNA segment, single round, ends assumed
Relative to: no-protein control
Reading: higher = stronger binding
Residues (chain): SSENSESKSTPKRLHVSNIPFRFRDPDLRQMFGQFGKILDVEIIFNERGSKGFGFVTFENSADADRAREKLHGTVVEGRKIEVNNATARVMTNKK
For `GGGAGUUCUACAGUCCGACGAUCGUAGGGAGACAUUAAACCCACACCAAAUCAUGAGGGGCUGAGGACCCCCAAUCUUCUUCUCUAGGUCGCCAAUCCCACAGGCUGUACAGCUCAGUUCCCUAUGUUUAUGCUGGAAUUCUCGGGUGCCAA`, “RBNS enrichment (R)” read 1.75.
`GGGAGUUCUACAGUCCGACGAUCACACUUAUAAGUUCUUUUCAGCUUCUACAAUAAAGAAAAGUUCAGAAAUGCUUUCAGUUACCAAAGUUAUAACGAUAUAUUUAGGAAAAGCUACAAAUAACACUUACUUUUGGAAUUCUCGGGUGCCAA`: “RBNS enrichment (R)” 0.751.
For `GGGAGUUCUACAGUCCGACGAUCAUCUCGGCUCACUGCAACCUCCGCCUCCUUGGUUCCAGCAAUUCUUCUGCCUCAGCCUCCCGAGUAGCUGGGACUACAAGCGGCUGCCACCACACCUGGCUAUUUUUUUUUGGAAUUCUCGGGUGCCAA`, “RBNS enrichment (R)” read 0.213.
For `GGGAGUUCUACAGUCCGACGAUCCCCUGCAAGGCCCACACUCACGCCCUGUGGGUGAUGGUCACGGUGGGUGGGUGGGGGCUGACCCCAGCUUCCAGGGGACUGUCACUGUGGACGCCAAAAUGGCAUAACUGUGGAAUUCUCGGGUGCCAA`, “RBNS enrichment (R)” read 0.642.
`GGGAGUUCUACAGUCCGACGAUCCCAUCUGCAAUUUGCCUGUGGGAGAAGCAUCCUUUAGUUCAUCUUAAGGAAGUGCUUUAUCAGCUAAACCCAACAUUGAUAACUUUGGUAAUUUUUUUAAAAAGUUAUACUGGAAUUCUCGGGUGCCAA`: “RBNS enrichment (R)” 0.288.
Under “RBNS enrichment (R)”, `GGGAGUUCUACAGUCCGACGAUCGCAGUGUUUACCAUAAACAGGUACAGGCUUCAUGAGUUUUUCAUACUGAUUUACAAUUGAGUAGAUACCAAAAACAGAGUGGCAAGUGUAUUUUAGUAGCAGUUGAGGCAUGGAAUUCUCGGGUGCCAA` is recorded as 0.433.
`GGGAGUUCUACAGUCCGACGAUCAAAAUCUAACUUUGAUUAAUUAAGUACAGGGUUAUUGCUGAUAGCCUCAUAACUCUACCACCAUUAUAAUGGAUCUAUAUAAAAUUGCUUAAUAUCAGUAGCCUAAAUUUUGGAAUUCUCGGGUGCCAA` — result for “RBNS enrichment (R)”: 0.408.
For `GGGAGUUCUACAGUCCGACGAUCGCAGACACCUGUGCACCCCAUGAGUAGUGCCCACUUGAGGCUGGCACUCCCCUGACCUCACCUUUGCAAAGUUACAGAUGCACCCCAACAUUGAGAUGUGUUUUUAAUGUUGGAAUUCUCGGGUGCCAA`, “RBNS enrichment (R)” read 0.572.
Under “RBNS enrichment (R)”, `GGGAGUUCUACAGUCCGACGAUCAUAAAAUGGAUGCCCUUCAUGUUUUAUUGCUAUUACUAAAUGUCAAGAUUGUAUGCUAUUAUGUCUUGUAAAAAUUCCUUCUGUUGGUGUAAAUAUGGAAAUGCCACAUUUGGAAUUCUCGGGUGCCAA` is recorded as 3.12.
For `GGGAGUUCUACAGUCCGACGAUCUCUACUACAGAGUCUAUUAUACUAGAUAAAAAUGUUGUUACAAAGUCUGGAGUCUAGGGUUGGGCAGAAGAUGACAUUUAAUUUGGAAAUUUCUUUUUACUUUUGUGGAGUGGAAUUCUCGGGUGCCAA`, “RBNS enrichment (R)” read 0.773.
For `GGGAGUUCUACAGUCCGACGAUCCCCGGAGGAAGCAAACUCUUCGUAUAAAAAAAGCAGGCCAUCUGCUUAACCCUUGGCUCCACCAUAAGGCACUGGGACUCGGAUUUCUCUAUCUGAUAGAGGUAUUUUCUUGGAAUUCUCGGGUGCCAA`, “RBNS enrichment (R)” read 0.339.
`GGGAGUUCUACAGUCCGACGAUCGACUGUAGGAUGGUUUGAACGAAAACCCAGGGCCACUGAUAGCAGUGCCCAAGAUUAUCUGUAAAGUAAUAAAAUCUGCCGAGGAGAAUGUGAAAAGAAUUUGUUCAAGGUGGAAUUCUCGGGUGCCAA`: “RBNS enrichment (R)” 1.53.

Study 4
Target: Interferon regulatory factor 5, full length, phosphomimetic (IRF5, Homo sapiens, UniProt Q13568-2, residues 1-514, K96S/S451D/S453D/S456D/S462D)
Method: protein-binding microarray
Molecule type: double-stranded DNA, one strand shown
Sample: in vitro
Concentration: 250 nM
Setting: 60-bp whole probe
Together with: salmon DNA 0.4 mg/ml
Relative to: random background probes
Reading: higher = stronger binding
All sequences stand within: GCCTAGCAC … GTCTTGATTCGCTTGACGCTGCTG
`GACGGACTGGGACAGGGGACGTGCTAG` gave a log fluorescence of -0.377 z-score.
The log fluorescence of `TTAGGTTTCGGGTATCGGATAGTGCTA` is reported as 9.01 z-score.
For `ATGACAATGATGTTTTGAGTTGTGCTA`, the log fluorescence was 0.177 z-score.
`GACGATTTCAGTAACGAGACGTGCTAG` gave a log fluorescence of 1.27 z-score.
The log fluorescence of `GTGGGTTTGAGTCTTCTCCTGTGCTAG` is reported as -0.196 z-score.
With `TTAGGGTCCGGTTTCGGTTAGTGCTAG` the log fluorescence was 8.09 z-score.
The log fluorescence of `GACGGTTTCCTTCCCCTGACGTGCTAG` is reported as 0.643 z-score.
With `AACGGTTTCGGTTCCGGGACGTGCTAG` the log fluorescence was 9.81 z-score.
The log fluorescence of `GACGGTATCGGACTGGAGACGTGCTAG` is reported as 0.925 z-score.
With `GACGGTATACTTTTCCTGACGTGCTAG` the log fluorescence was 0.3 z-score.
`GACGGTTTCTGGTATCGGGACGTGCTA` gave a log fluorescence of 3.19 z-score.
For `TTAGATTTCGGGTATCCATTAGTGCTA`, the log fluorescence was 5.81 z-score.
`GTATTTGTCCCTATTTAAGAGTGCTAG` gave a log fluorescence of 0.935 z-score.
For `TCAGTTCTGAGTCTTCCACTGTGCTAG`, the log fluorescence was -0.179 z-score.
With `GACGGTTTCGGGTTTCGAGACGTGCTA` the log fluorescence was 8.02 z-score.
The log fluorescence of `TTAGCACTGGGGTATCGATTAGTGCTA` is reported as 2.05 z-score.
The log fluorescence of `TCACCTTCCCCTCTAGGACTGTGCTAG` is reported as 0.138 z-score.
With `TTAGGTTTCGGTTATCGGTTAGTGCTA` the log fluorescence was 11 z-score.
With `AACGATCTCAGTATCGAGACGTGCTAG` the log fluorescence was 1.91 z-score.
The log fluorescence of `TTAGATTCCGGGACTGGATTAGTGCTA` is reported as 0.0186 z-score.
